Measurements from different studies.
Numbered parts are unrelated; each lists some results of a single study.

Block 1 — method: RNA Bind-n-Seq; molecule type: RNA; matrix: in vitro; concentration: 365 nM; reference: no-protein control; direction: higher = stronger binding
Target: RNA binding protein fox-1 homolog 2, RRM domain, GST-SBP tag (RBFOX2, Homo sapiens, UniProt O43251-10, residues 100-194)
Notes: natural RNA segment, single round, ends assumed
Target sequence (chain): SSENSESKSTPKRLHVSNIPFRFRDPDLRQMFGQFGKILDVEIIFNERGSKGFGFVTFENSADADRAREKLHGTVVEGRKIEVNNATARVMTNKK
For `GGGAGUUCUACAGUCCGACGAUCUUGUUGACACUUUAAUUUUGCUAUAAAUGUGUGGAAUCACAAGUUGCUGUGAUACUUCAUUUUUAAAUUGUGAACUUUGUACAAACUUUGUCAUGCUGAUGUGAACACAUUGGAAUUCUCGGGUGCCAA`, “RBNS enrichment (R)” read 0.414.
For `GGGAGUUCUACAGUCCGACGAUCCUAUGUCUGGGACUACGAUCCCUUUUCCCUGGGUAAUAAACUCAGCCACCCAUCCUAAGGAGGCAAGCACUUGGCCUCUUUGAGUGAGACUUGGCUUUAGGACUCUCUGCUGGAAUUCUCGGGUGCCAA`, “RBNS enrichment (R)” read 0.347.
Under “RBNS enrichment (R)”, `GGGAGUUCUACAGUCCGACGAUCUACAAAAAAGAAAAGACCAGUCCAUGAGGGAGGUUUUUAAGGGUUUGUGGAAAAUGAAAAUUAGGAUUUCAUGAUUUUUUUUUUUCAGUCCCCGUGAAGGAGAGCCCUUCUGGAAUUCUCGGGUGCCAA` is recorded as 0.72.
Under “RBNS enrichment (R)”, `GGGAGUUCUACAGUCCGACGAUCGAGGGCCCAGCAAGGUAAUUUAUGGUUGAGCUGAUGUCAAUUGGUUCUUGUCUUGAGUCGACUCAAUUUAGCCCAAGUGCUGAAACAAGAAAUGUCAUUUUUUUCAUCAAUGGAAUUCUCGGGUGCCAA` is recorded as 0.437.
Under “RBNS enrichment (R)”, `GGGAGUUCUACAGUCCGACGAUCCCCCCCAGGUAGACAGGUGCAUUUUGACCCUUCUGGACAGAAGAAACAAUGUGUUUUCCACCCCACCCAAUGGGAUUGUUGAAGUAUUAACUGUGCUAAGAGAUCUUGACUGGAAUUCUCGGGUGCCAA` is recorded as 0.305.
`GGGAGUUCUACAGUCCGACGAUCGAAGUUGACCAGACAAAGCAAAUGGAGGGGCACCUCUGUGUACCCUCUUCACCUAAGUGUUUAUAACCAGCAGUACCCUGCUACAAGCCUUGGGUGCAGCCAUCACUGGAUGGAAUUCUCGGGUGCCAA` — result for “RBNS enrichment (R)”: 0.224.
For `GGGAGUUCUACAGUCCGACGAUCACCCCUUACAUGAAUAUAGUCAUGUACACACACGCAUACAAAAAGUAAUACAAACACAAACAUCAUACACACUGACUCUGAACUGGGUGAACUCUGUGAAGGGAGGCCCAUGGAAUUCUCGGGUGCCAA`, “RBNS enrichment (R)” read 1.47.
For `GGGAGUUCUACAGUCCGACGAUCCUCAGUGGUCACUUUCCCGCUCCCACUUGGGGCUGGGAGCCGUGCCACCAUCCCCUAGAAGUCCUGUCCUCUUCACCCUGCCCUACCUGAGCCGCUGACUCUUCUGGCAAUGGAAUUCUCGGGUGCCAA`, “RBNS enrichment (R)” read 0.376.
For `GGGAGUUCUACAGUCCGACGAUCCCCUUGGUUACCACCUACCCACCUUGCCUAUUUUAAGUGAAACUUACCACCAAUGAUGUGGGGAAGUGUGUUUCCCUAACAACUGGAGUUUUAGCCUAACCCUGAUCCCUUGGAAUUCUCGGGUGCCAA`, “RBNS enrichment (R)” read 0.783.

Block 2 — method: RNA Bind-n-Seq; molecule type: RNA; matrix: in vitro; concentration: 1 µM; notes: whole 134-nt RNA, ends assumed; together with: 150 mM KCl; reference: input library; direction: higher = stronger binding
Target: Ras GTPase-activating protein-binding protein 1, RRM domain (G3BP1, Homo sapiens, UniProt Q13283)
UniProt Q13283, sequence (whole entry, looked up): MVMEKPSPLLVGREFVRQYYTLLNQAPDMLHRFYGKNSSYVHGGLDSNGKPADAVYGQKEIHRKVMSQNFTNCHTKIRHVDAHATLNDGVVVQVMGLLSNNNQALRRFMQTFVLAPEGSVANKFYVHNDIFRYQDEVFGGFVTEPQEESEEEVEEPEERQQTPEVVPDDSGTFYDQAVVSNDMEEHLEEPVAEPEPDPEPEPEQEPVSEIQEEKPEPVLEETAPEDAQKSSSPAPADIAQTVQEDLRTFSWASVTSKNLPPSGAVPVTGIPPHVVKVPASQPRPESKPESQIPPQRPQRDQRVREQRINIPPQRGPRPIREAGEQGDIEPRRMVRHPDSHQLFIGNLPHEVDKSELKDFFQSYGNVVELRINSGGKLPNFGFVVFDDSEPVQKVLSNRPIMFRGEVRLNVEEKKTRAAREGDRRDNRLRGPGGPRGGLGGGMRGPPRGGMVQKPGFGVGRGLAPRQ
The log2 enrichment of `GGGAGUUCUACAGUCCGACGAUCUGGCCCUGGUGGCAUGCGGGGAGGAAGAGGUGGCCUCAUGGAUCGUGGUGGUCCCGGUGGAAUGUUCAGAGGUGGCCGUGGAGGAGACAGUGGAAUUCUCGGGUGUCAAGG` is reported as 1.89.
For `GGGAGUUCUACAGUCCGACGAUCCAAGUCCUGUGCUACACAUCGUAUGUACCGAAUCGGUUUUGGUUUUGGGUUUUGGGAAAGUAUUAUGUUACGCCGUUCGGAUCUGCACUUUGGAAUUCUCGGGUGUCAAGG`, the log2 enrichment was -0.218.
`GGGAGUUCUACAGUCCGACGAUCUGUGCUACACAUCGUAUGUACCGAAUCGGGGAAAAAAAGGGGAAAAAAAGGGAAAAAAAGGGAAAGUAUUAUGUUACGCCGUUCGGAUCUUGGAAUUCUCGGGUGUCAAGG` gave a log2 enrichment of 0.181.
`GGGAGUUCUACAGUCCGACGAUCUCAAGUCCUGUGCUACACAUCGUAUGUACCGAAUCGGGUUUGGGGUUUGGUUUGGAAAGUAUUAUGUUACGCCGUUCGGAUCUGCACUUCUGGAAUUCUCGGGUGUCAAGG` has a log2 enrichment of -0.444.
`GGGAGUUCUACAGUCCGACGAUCCAAGUCCUGUGCUACACAUCGUAUGUACCGAAUCGGAAAAAGGUUUGGAAAAAGGAAAGUAUUAUGUUACGCCGUUCGGAUCUGCACUUCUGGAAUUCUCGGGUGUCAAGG` gave a log2 enrichment of -0.259.
`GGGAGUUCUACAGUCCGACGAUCGUCCUGUGCUACACAUCGUAUGUACCGAAUCGGGUUUUUUUGGGUGGGAAAAAAAGGGAAAGUAUUAUGUUACGCCGUUCGGAUCUGCACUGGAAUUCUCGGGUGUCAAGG` gave a log2 enrichment of 0.00853.

Block 3 — method: RNA Bind-n-Seq; molecule type: RNA; matrix: in vitro; concentration: not given; reference: input RNA pool; direction: higher = stronger binding
Target: RING finger protein unkempt homolog, zinc fingers 1-6, GST-SBP tag (UNK, Homo sapiens, UniProt Q9C0B0, residues 30-357)
Notes: RNA with constant flanks, human and mouse sites, ends assumed
Residues (chain): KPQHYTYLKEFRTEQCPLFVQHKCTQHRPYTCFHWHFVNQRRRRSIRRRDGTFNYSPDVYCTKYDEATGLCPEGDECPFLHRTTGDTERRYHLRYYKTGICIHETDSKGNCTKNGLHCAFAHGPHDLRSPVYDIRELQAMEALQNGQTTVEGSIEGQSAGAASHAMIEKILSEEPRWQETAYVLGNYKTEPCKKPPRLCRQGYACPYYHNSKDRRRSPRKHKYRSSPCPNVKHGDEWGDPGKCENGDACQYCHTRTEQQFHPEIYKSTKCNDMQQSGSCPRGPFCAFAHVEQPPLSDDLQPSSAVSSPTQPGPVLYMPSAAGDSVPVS
`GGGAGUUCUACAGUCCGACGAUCAGAAGAAAGCGAGCCCGGCAGAUCAAUGUUUCCACAGAUGACUCAGAGGUCAAGGCUUGCCUUCGAGCCUUGGGAGAGCCUAUCACGCUUUUUGGAGAGGGCCCUGCUGAACGAAGAGAACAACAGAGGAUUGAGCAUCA` has a bound/input enrichment of 0.163 ratio.
`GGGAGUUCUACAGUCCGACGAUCCACUUUGGAGCCACCGACCUGGAUGUGGCCAACUUCUACGUGUCACAGCUGCAGACUCCCAUAGGUGUGCAAGCAGAGGCGCUGCUCCGAUGUAGUGACAUUAUUUCAUAUACCUUCAAGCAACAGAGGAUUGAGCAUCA` gave a bound/input enrichment of 0.409 ratio.
The bound/input enrichment of `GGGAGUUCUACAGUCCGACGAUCGACAUUUGGACAUUACUGGGGACGGUGCUUUAUCCAUUCCUGGCCAUAUGGAGAUUAAUUAGCAAUUUUUUAUUUAGCAAUCCUCCUCCUGCACAGACUUCAGCAAGAGCCACAUCCACACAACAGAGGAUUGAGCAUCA` is reported as 442 ratio.
`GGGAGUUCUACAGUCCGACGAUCUACCGCUUCCCAACUACUGAUGGUAACCACCUACGGAUCCUGGAGCAGAUGGCAGAGAGCGUCCUCUCCCUGCACGUGCCUCGGCAGUUUGUGAAGCUACUGCUGGAAGAAGAUGCAGCCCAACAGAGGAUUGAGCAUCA` has a bound/input enrichment of 0.0965 ratio.
`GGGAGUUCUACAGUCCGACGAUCGGCAGCGAACUGGUUUGUGGCCUGUUUGAUUCCUGUCAGAGGUUUGCUGACCCAAGACAGUAUCGAAAAUGCAUAUUAAGUCAAUUAUUCUAGAGGGAUUCAAGUCCUAUGCUCAGAGGACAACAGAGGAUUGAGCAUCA` gave a bound/input enrichment of 0.751 ratio.

Single results of other studies
`PhoQ, residues 284 288 289 292 302 303 SACGEM` has a fold induction of 19.8 (PhoP, residues 12 14 15 18 19 NHFIF (Escherichia coli, UniProt P23836); Sort-seq, refers to: YFP reporter; E. coli; PhoQ-PhoP variant library, together with: 10 µM Mg2+; reference: high Mg2+ state, higher = stronger signaling).

For quick reference, copied from above (block 3):
`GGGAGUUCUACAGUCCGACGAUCGGCAGCGAACUGGUUUGUGGCCUGUUUGAUUCCUGUCAGAGGUUUGCUGACCCAAGACAGUAUCGAAAAUGCAUAUUAAGUCAAUUAUUCUAGAGGGAUUCAAGUCCUAUGCUCAGAGGACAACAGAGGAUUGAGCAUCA` gave a bound/input enrichment of 0.751 ratio.
`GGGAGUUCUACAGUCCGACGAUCAGAAGAAAGCGAGCCCGGCAGAUCAAUGUUUCCACAGAUGACUCAGAGGUCAAGGCUUGCCUUCGAGCCUUGGGAGAGCCUAUCACGCUUUUUGGAGAGGGCCCUGCUGAACGAAGAGAACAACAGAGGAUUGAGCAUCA` has a bound/input enrichment of 0.163 ratio.
